Earlier results that unrelated publications cite.
Lines come from different studies, so protocols differ. ± marks the error that the study gave.
B1: human myelin basic protein; sequence looked up; chain MGNHAGKRELNAEKASTNSETNRGESEKKRNLGELSRTTSEDNEVFGEADANQNNGTSSQDTAVTDSKRTADPKNAWQDAHPADPGSRPHLIRLFSRDAPGREDNTFKDRPSESDELQTIQEDSAATSESLDVMASQKRPSQRHGSKYLATASTMDHARHGFLPRHRDTGILDSIGRFFGGDRGAPKRGSGKDSHHPARTAHYGSLPQKSHGRTQDENPVVHFFKNIVTPRTPPPSQGKGRGLSLSRFSWGAEGQRPGFGYGGRASDYKSAHKGFKGVDAQGTLSKIFKLGGRDSRSGSPMARR
Chain of UniProt D4Z2G1 (whole entry, looked up): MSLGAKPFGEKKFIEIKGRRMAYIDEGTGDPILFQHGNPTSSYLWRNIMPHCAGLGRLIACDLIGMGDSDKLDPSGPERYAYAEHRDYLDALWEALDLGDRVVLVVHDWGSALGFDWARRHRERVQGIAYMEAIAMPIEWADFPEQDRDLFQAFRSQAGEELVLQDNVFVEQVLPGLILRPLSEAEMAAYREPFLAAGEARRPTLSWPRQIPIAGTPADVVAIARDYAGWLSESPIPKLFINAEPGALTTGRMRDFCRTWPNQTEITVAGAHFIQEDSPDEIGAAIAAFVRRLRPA
Chain of UniProt P02730 (whole entry, looked up): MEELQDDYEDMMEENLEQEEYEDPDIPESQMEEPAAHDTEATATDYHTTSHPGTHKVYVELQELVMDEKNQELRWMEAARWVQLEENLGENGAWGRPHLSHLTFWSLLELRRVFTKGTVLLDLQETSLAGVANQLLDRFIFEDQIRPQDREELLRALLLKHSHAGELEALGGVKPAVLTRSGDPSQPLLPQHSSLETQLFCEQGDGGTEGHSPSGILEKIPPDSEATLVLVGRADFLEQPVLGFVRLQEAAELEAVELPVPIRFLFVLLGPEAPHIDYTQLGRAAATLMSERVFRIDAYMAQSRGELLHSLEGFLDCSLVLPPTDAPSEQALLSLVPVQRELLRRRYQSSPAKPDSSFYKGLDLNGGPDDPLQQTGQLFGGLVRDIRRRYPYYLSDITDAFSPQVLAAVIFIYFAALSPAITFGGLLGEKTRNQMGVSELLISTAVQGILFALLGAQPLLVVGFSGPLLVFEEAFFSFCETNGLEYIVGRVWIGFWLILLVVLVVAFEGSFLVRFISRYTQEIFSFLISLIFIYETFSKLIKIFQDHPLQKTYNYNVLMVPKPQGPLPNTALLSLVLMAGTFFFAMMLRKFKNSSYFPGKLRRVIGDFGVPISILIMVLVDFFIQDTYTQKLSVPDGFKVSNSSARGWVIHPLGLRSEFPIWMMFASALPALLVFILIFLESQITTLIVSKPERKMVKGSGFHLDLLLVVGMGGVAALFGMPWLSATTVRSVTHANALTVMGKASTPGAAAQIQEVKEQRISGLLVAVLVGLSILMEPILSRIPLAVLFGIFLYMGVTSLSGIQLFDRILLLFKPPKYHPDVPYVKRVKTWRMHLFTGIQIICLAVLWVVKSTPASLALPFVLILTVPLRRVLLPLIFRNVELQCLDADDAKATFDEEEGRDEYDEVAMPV
Chain of UniProt P02920 (whole entry, looked up): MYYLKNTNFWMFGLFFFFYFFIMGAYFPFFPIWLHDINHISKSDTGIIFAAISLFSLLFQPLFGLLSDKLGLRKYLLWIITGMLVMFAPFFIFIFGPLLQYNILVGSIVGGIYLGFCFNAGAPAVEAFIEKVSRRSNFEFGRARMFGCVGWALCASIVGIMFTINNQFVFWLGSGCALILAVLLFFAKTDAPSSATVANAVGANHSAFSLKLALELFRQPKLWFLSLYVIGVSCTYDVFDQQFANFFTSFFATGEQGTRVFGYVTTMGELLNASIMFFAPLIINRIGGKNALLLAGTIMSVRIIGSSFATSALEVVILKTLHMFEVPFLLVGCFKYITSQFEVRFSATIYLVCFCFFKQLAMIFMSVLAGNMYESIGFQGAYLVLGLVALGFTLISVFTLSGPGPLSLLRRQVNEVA
Chain of UniProt P9WPN9 (whole entry, looked up): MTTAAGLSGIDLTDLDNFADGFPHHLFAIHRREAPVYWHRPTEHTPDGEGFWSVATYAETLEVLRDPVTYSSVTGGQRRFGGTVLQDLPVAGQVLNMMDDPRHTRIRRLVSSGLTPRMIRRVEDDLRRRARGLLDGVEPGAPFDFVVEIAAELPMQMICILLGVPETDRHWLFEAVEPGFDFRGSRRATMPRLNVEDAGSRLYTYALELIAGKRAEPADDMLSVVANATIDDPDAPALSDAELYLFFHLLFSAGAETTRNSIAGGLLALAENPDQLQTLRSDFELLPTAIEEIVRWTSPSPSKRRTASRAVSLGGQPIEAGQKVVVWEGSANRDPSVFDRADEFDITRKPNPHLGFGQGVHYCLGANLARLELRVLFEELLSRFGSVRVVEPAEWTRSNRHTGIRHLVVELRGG

For `Nc1ncnc2c1ncn2[C@@H]1O[C@H](CO)[C@@H](O[C@H]2O[C@H](CO)[C@@H](OP(=O)(O)O)[C@H](OP(=O)(O)O)[C@H]2O)[C@H]1OP(=O)(O)O`, the Kd was 0.00073 µM (IP3 receptor).
With `CC(C)COCC(CN(Cc1ccccc1)c1ccccc1)N1CCCC1` (stereo not shown) the Kd was 20 µM (cardiac troponin C N-domain, calcium-saturated; binding; no switch peptide).
With `CCCCCCCl` the Kd was 240 µM (linB (Sphingobium indicum, UniProt D4Z2G1); enzyme-substrate dissociation, substrate; pH 8.6, 37 °C).
For `CC(=O)O[C@H]1C(=O)[C@@]2(C)[C@H]([C@H](OC(=O)c3ccccc3)[C@]3(O)C[C@H](OC(=O)[C@H](O)[C@@H](NC(=O)c4ccccc4)c4ccccc4)C(C)=C1C3(C)C)[C@]1(OC(C)=O)CO[C@@H]1C[C@@H]2O`, the Kd was 0.01 µM (tubulin; binding to microtubules).
`Nc1nc2c(nc(Br)n2[C@@H]2O[C@@H]3COP(=O)(O)O[C@H]3[C@H]2O)c(=O)[nH]1`: “Km or Ki” 47.2 µM (PDE1A; cyclic nucleotide hydrolysis, substrate or inhibitor, isothermal titration calorimetry).
With `O=P(O)(O)OCC(O)CO` (racemic) the Kd was 50000 µM (orotidine 5'-phosphate decarboxylase wild type; activator; pH 7.0, 25 °C, ionic strength 0.15 (NaCl), added: FO).
`Nc1nc2c(ncn2[C@@H]2O[C@@H]3COP(=O)(O)O[C@H]3[C@H]2O)c(=O)[nH]1` — result for “Km or Ki”: 8.23 µM (PDE1A; cyclic nucleotide hydrolysis, substrate or inhibitor, isothermal titration calorimetry).
The Kd of `CCCCNc1ccc(C(=O)OCCN(C)C)cc1` is reported as 170 µM (CNG channel; binding; open channel state).
`Cc1cn([C@H]2C[C@H](O)[C@@H](COP(=O)(O)OP(=O)(O)OP(=O)(O)O)O2)c(=O)[nH]c1=O` has a Kd of about 31 µM (bacteriophage T4 DNA polymerase exo-; nucleotide binding; opposite template 2-aminopurine, added: chain-terminated DNA, Mg2+).
`B1 (human myelin basic protein)` gave a Kd of 0.0169 ± 1.4e-11 µM (Aβ40 Dutch/Iowa peptide; SPR).
`Cc1c(OCC(F)(F)F)ccnc1C[S+]([O-])c1nc2ccccc2[nH]1` (stereo not shown) has a Kd of 0.0025 ± 0.0004 µM (heparin-induced tau filaments; radioligand binding).
The Kd of `Nc1ncnc2c1ncn2[C@@H]1O[C@H](COP(=O)(O)OP(=O)(O)O)[C@@H](O)[C@H]1O` is reported as 19 ± 1.9 µM (CFTR NBD1; binding, SPR or ITC).
With `COc1cc2cc(c1Cl)N(C)C(=O)C[C@H](OC(=O)[C@H](C)N(C)C(C)=O)[C@]1(C)O[C@H]1[C@H](C)[C@@H]1C[C@@](O)(NC(=O)O1)[C@H](OC)/C=C/C=C(\C)C2` the Kd was about 1 µM (tubulin; vinblastine site).
For `CSCC[C@H](NC(=O)[C@H](CCC(=O)O)NC(=O)[C@@H](N)CS)C(=O)N[C@@H](CO)C(=O)N[C@@H](Cc1c[nH]cn1)C(=O)N[C@@H](CCCCN)C(=O)N[C@@H](CCCCN)C(=O)N[C@@H](CO)C(=O)N[C@@H](Cc1ccccc1)C(=O)N[C@@H](Cc1ccccc1)C(=O)N[C@@H](CC(=O)O)C(=O)N[C@@H](CCCCN)C(=O)N[C@@H](CCCCN)C(=O)N[C@@H](CCCNC(=N)N)C(=O)N[C@@H](CO)C(=O)N[C@@H](CCC(=O)O)C(=O)N[C@@H](CCCNC(=N)N)C(=O)O`, the Kd was about 0.3 µM (Rev1 C-terminal domain; binding, tryptophan fluorescence titration).
`O=P(O)(O)O[C@@H]1[C@H](O)[C@H](O)[C@@H](OP(=O)(O)O)[C@H](OP(=O)(O)O)[C@H]1O` has a Kd of 0.086 ± 0.009 µM (IP3R1 N-terminal domain residues 1-604; binding, FP competition; 4 °C, after incubation at 37 °C).
`C=CCOC(=O)/N=c1\oc2cc(N(CC)CC)ccc2cc1-c1nc2ccccc2s1` has a Kd of 5.1 µM (Keap1-Nrf2 interaction; binding).
For `CC(C)CCC[C@@H](C)[C@H]1CC[C@H]2[C@@H]3CC=C4C[C@@H](O)CC[C@]4(C)[C@H]3CC[C@]12C`, the Kd was about 80 µM (TSPO Rhodobacter sphaeroides wild type; purified protein).
`Nc1ncnc2c1ncn2[C@@H]1O[C@H](COP(=O)(O)OP(=O)(O)NP(=O)(O)O)[C@@H](O)[C@H]1O` gave a Kd of 11 ± 1.1 µM (CFTR NBD1; binding, SPR or ITC).
`COc1cccc2c1C(=O)c1c(O)c3c(c(O)c1C2=O)C[C@@](O)(C(=O)CO)C[C@@H]3O[C@H]1C[C@H](N)[C@H](O)[C@H](C)O1`: “beating cessation concentration” 3.7 µM (hiPSC-derived cardiomyocytes; 72 h, tested 0 to 100 µM).
`CCCCCCCCCCCCCCCCCCCCCCCCCC(=O)N[C@@H](CO[C@H]1O[C@H](CO)[C@H](O)[C@H](O)[C@H]1O)[C@H](O)[C@H](O)CCCCCCCCCCCCCC` gave a Kd of 0.34 µM (CD1d, mouse; binding, surface plasmon resonance).
For `CC(=O)O[C@@]12CO[C@@H]1C[C@H](O)[C@@]1(C)C(=O)[C@H](O)C3=C(C)[C@@H](OC(=O)[C@H](O)[C@@H](NC(=O)OC(C)(C)C)c4ccccc4)C[C@@](O)([C@@H](OC(=O)c4ccccc4)[C@H]21)C3(C)C`, the Kd was 0.017 µM (tubulin; competition binding; cross-linked microtubules; added: Flutax-2).
`O=[N+]([O-])c1ccc(O[C@H]2O[C@H](CO)[C@H](O)[C@H](O)[C@H]2O)cc1` has a Kd of 65 µM (lacY (Escherichia coli, UniProt P02920); ligand, stopped-flow FRET; DDM-solubilised protein).
`Nc1nc2c(ncn2[C@@H]2O[C@H](COP(=O)(O)OP(=O)(O)OP(=O)(O)O)[C@@H](O)[C@H]2O)c(=O)[nH]1` gave a Kd of 1.67e-05 µM (H-Ras; binding).
The Km of `O=P(O)(O)OC[C@H]1O[C@H](OP(=O)(O)OP(=O)(O)O)[C@H](O)[C@@H]1O` is reported as 32 ± 5 µM (Trypanosoma cruzi HGPRT isoform A; enzyme activity, substrate; GMP formation, added: guanine 70 µM).
`CCN(CC)CCNC(=O)c1c(C)[nH]c(/C=C2\C(=O)Nc3ccc(F)cc32)c1C` — result for “log2 fold change”: 1.33 (hiPSC-derived cardiomyocytes; contractility; concentration not given, 72 h, at effective concentration; reference: baseline).
With `Nc1ccn([C@H]2C[C@H](O)[C@@H](COP(=O)(O)NP(=O)(O)OP(=O)(O)O)O2)c(=O)n1` the Kd was 1.7 ± 0.3 µM (DNA polymerase beta; nucleotide insertion; opposite templating guanosine).
The GI50 of `O=C1c2ccccc2-c2c1c1ccc([N+](=O)[O-])cc1c(=O)n2CCCN1CCOCC1` is reported as 0.632 ± 0.029 µM (NCI-60 panel mean; cell growth).
`HWKHLHNTKTFL` has a Kd of 0.0474 µM (MMP-14; binding; peptide; apparent Kd).
For `[I-].[K+]`, the Kd was about 60000 µM (SLC4A1 (Homo sapiens, UniProt P02730); Cl- exchange, noncompetitive inhibitor).
`CCCC[N+](CCCC)(CCCC)Cc1ccc(C(=O)c2ccccc2)cc1` gave a Kd of 6 µM (BK channel (open state); channel block, blocker; membrane potential 0 mV).
For `CC(=O)N1CCN(c2ccc(OCC3COC(Cn4ccnc4)(c4ccc(Cl)cc4Cl)O3)cc2)CC1` (stereo not shown), the Kd was 1.4 µM (cyp126 (Mycobacterium tuberculosis, UniProt P9WPN9); binding).

Excerpt of the above:
`B1 (human myelin basic protein)` gave a Kd of 0.0169 ± 1.4e-11 µM (Aβ40 Dutch/Iowa peptide; SPR).
`Cc1c(OCC(F)(F)F)ccnc1C[S+]([O-])c1nc2ccccc2[nH]1` (stereo not shown) has a Kd of 0.0025 ± 0.0004 µM (heparin-induced tau filaments; radioligand binding).
The Kd of `Nc1ncnc2c1ncn2[C@@H]1O[C@H](COP(=O)(O)OP(=O)(O)O)[C@@H](O)[C@H]1O` is reported as 19 ± 1.9 µM (CFTR NBD1; binding, SPR or ITC).
With `COc1cc2cc(c1Cl)N(C)C(=O)C[C@H](OC(=O)[C@H](C)N(C)C(C)=O)[C@]1(C)O[C@H]1[C@H](C)[C@@H]1C[C@@](O)(NC(=O)O1)[C@H](OC)/C=C/C=C(\C)C2` the Kd was about 1 µM (tubulin; vinblastine site).
For `CSCC[C@H](NC(=O)[C@H](CCC(=O)O)NC(=O)[C@@H](N)CS)C(=O)N[C@@H](CO)C(=O)N[C@@H](Cc1c[nH]cn1)C(=O)N[C@@H](CCCCN)C(=O)N[C@@H](CCCCN)C(=O)N[C@@H](CO)C(=O)N[C@@H](Cc1ccccc1)C(=O)N[C@@H](Cc1ccccc1)C(=O)N[C@@H](CC(=O)O)C(=O)N[C@@H](CCCCN)C(=O)N[C@@H](CCCCN)C(=O)N[C@@H](CCCNC(=N)N)C(=O)N[C@@H](CO)C(=O)N[C@@H](CCC(=O)O)C(=O)N[C@@H](CCCNC(=N)N)C(=O)O`, the Kd was about 0.3 µM (Rev1 C-terminal domain; binding, tryptophan fluorescence titration).
